Experimental data collected from several papers.
Protocols differ between the studies behind these lines.
Target: Serine/threonine-protein kinase ICK (CILK1, Homo sapiens, UniProt Q9UPZ9)

With `O=C(Nc1cc(-c2ccnc3[nH]ccc23)c(Cl)cn1)[C@H]1CCC[C@@H](NC(=O)C(F)(F)F)C1` the remaining binding was 21% (binding, competition with immobilised ligand; 0.1 µM).
`CN1CC[C@@H](COc2cnc(C#N)cc2-c2ccn3nc(NC(=O)C4CC4)cc3c2)C1` has an inhibition of 8% (enzyme activity, inhibitor; 1 µM).
`Nc1ncc(-c2cc(-c3cnn(CC(F)(F)F)c3)ncc2F)nc1C(=O)NC1CNCC(F)C1` (stereo not shown) gave a remaining activity of 94% (enzyme activity; 1 µM; relative to: DMSO control).
With `CNC(=O)C1CCN(c2cc(C)c(F)cc2NC(=O)c2ccc(-c3cc(O)ccc3C)c(C)c2)CC1` the remaining binding was 100% (binding, competition with immobilised ligand; 1 µM).
`CNC1C[S+]2CC[S+]3CC[S+](C1)[Ru-4]321([N]=C=S)[n]2c3ccc(OC)cc3c3c4c(c5cc(F)c[n+]1c5c32)C(=O)NC4=O` (stereo not shown) has a remaining binding of 71% (KinomeScan; 0.1 µM; relative to: untreated).
For `CC(C)=CC1OC(C)(C)C2C=C3C(=O)C(Cl)=CC(O)C3C3C(O)C4OC4C(=O)C132` (stereo not shown), the remaining binding was 79% (cell-free assay, competition with immobilised ligand; 10 µM).
For `CCn1cc(C(=O)O)c(=O)c2c(N)c(F)c(NC3CCCCC3)cc21`, the inhibition was 4.6% (kinase activity; 0.1 µM, added: ATP at Km).
`CN1CCN(Cc2ccc(-c3ccc(CO[C@H]4CCC[C@@H]4NC(=O)c4cc(-c5cnn(C)c5)cnc4N)cc3)cc2)CC1` has an inhibition of 2% (enzyme activity, inhibitor; 0.1 µM).
The remaining binding of `COc1cc(Nc2nccc(-c3cnn4nc(OC)ccc34)n2)cc(C(F)(F)F)c1` is reported as 100% (binding, competition with immobilised ligand; 1 µM).
`COc1c(Cl)cccc1Nc1c(-c2ccncc2C#C[C@@]2(C)CCCN2C(=O)/C=C/CN(C)C)[nH]c2c1C(=O)NCC2` gave a remaining binding of 64% (binding, competition with immobilised ligand; 3 µM).
For `Nc1ncc2c(n1)-c1c([nH]c3ccc(C4=CCOCC4)cc13)CCC2`, the remaining binding was 86% (binding, competition with immobilised ligand; 1 µM).
`C=CC(=O)N1CCc2ccc(-n3c(=O)ccc4cnc5ccc(-c6cnn(C)c6)cc5c43)cc21` gave a remaining binding of 100% (KINOMEscan; 1 µM; relative to: DMSO control).
The remaining binding of `CCN1CCN(Cc2ccc(C(=O)Nc3ccc(C)c(NCc4cnc5[nH]ccc5c4OC)c3)cc2C(F)(F)F)CC1` is reported as 54% (binding, competition with immobilised ligand; 1 µM).
`Cc1ccc(-c2c(/C=C(\C#N)C(=O)NC(C)C)n(CCCO)c3ncnc(N)c23)cc1` has a remaining binding of 100% (cell-free assay, competition with immobilised ligand; 1 µM).
The remaining binding of `Cc1cnc2nc1Nc1cccc(c1)COC/C=C/COCc1cc(ccc1OCCN1CCOCC1)N2` is reported as 85% (binding; 0.1 µM).
With `NC(=O)[C@@H](O)C[C@H]1CCc2sc3ncnc(O[C@H]4CC[C@H](N5CCOCC5)CC4)c3c21` the inhibition was 14% (enzyme activity, inhibitor; 10 µM).
`C=CC(=O)N1Cc2nc(-c3cc(-c4cc(Cl)cnc4Cl)c(F)cc3F)n(-c3ccncn3)c2C1` has an inhibition of 0.4% (cell-free assay, inhibitor; 1 µM).
For `NC(=O)C[C@H]1CCc2sc3ncnc(O[C@H]4CC[C@H](N5CCOCC5)CC4)c3c21`, the inhibition was 2% (enzyme activity, inhibitor; 10 µM).
Under “activity vs control”, `O=C(Cc1ccc(OCc2ccccc2)cc1)NC1(C(=O)O)CCN(C(=O)c2ccc(-c3cccc(Cl)c3)cc2)CC1` is recorded as 125% (enzyme activity, inhibitor; 10 µM).
